# Measurements pooled from the literature.
# Numbered parts are unrelated; each lists some results of a single study.
# Sequence of UniProt P48431 (19-118, looked up): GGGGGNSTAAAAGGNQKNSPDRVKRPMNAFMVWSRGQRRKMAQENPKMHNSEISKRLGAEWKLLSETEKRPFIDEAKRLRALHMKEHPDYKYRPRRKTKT

# Set 1
# Target: Ras GTPase-activating protein-binding protein 1, full length (G3BP1, Homo sapiens, UniProt Q13283)
# Sequence of UniProt Q13283 (whole entry, looked up): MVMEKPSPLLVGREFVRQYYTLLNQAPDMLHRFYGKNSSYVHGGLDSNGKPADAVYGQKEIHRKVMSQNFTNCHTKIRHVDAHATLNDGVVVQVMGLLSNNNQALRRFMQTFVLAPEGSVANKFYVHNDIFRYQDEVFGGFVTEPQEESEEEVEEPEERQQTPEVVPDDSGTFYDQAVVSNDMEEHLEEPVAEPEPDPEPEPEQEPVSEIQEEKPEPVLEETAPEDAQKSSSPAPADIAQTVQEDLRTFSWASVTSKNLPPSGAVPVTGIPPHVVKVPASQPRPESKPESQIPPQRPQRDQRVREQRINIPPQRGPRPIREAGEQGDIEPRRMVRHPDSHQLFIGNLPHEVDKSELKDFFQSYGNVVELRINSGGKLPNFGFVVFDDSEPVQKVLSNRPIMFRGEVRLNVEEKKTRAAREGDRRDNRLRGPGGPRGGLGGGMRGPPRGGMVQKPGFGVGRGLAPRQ
# Method: RNA Bind-n-Seq
# Molecule type: RNA
# Medium: in vitro
# Concentration: 200 nM
# Notes: whole 134-nt RNA, ends assumed
# With: 150 mM LiCl
# Reference: input library
# Reading: higher = stronger binding
# Each molecule: 7-deaza-guanosine replaces G
Strand,log2 enrichment
GGGAGUUCUACAGUCCGACGAUCUGCCGAUUCGGAAGUCCUUGAGGAGCGUCAGAAGCGGCUUCCCUACGUCCCAGAGCCCUAUUACCCGGAAUCUGGAUGGGACCGCCUCCGUGGAAUUCUCGGGUGUCAAGG,-0.961
GGGAGUUCUACAGUCCGACGAUCUGGCCCUGGUGGCAUGCGGGGAGGAAGAGGUGGCCUCAUGGAUCGUGUUGGUCCCGGUGGAAUGUUCAGAGGUGGCCGUGGUGGAGACAGUGGAAUUCUCGGGUGUCAAGG,0.195
GGGAGUUCUACAGUCCGACGAUCUCCUGUGCUACACAUCGUAUGUACCGAAUCGGGGAAAAAAGGAAAAAAGGAAAAAAGGGAAAGUAUUAUGUUACGCCGUUCGGAUCUGCAUGGAAUUCUCGGGUGUCAAGG,0.112
GGGAGUUCUACAGUCCGACGAUCUGGCCCUGGUGGCAUGCGGGGAGGAAGAGGUGGCCUCAUGGAUCGUGGUGGUCCCGGUGGAACGUUCAGAGGUGGCCGUGGUGGAGACAGUGGAAUUCUCGGGUGUCAAGG,0.611

# Set 2
# Target: Sal-like protein 4, full length isoform A (SALL4, Homo sapiens, UniProt Q9UJQ4, residues 1-1053)
# Sequence of UniProt Q9UJQ4 (whole entry, looked up): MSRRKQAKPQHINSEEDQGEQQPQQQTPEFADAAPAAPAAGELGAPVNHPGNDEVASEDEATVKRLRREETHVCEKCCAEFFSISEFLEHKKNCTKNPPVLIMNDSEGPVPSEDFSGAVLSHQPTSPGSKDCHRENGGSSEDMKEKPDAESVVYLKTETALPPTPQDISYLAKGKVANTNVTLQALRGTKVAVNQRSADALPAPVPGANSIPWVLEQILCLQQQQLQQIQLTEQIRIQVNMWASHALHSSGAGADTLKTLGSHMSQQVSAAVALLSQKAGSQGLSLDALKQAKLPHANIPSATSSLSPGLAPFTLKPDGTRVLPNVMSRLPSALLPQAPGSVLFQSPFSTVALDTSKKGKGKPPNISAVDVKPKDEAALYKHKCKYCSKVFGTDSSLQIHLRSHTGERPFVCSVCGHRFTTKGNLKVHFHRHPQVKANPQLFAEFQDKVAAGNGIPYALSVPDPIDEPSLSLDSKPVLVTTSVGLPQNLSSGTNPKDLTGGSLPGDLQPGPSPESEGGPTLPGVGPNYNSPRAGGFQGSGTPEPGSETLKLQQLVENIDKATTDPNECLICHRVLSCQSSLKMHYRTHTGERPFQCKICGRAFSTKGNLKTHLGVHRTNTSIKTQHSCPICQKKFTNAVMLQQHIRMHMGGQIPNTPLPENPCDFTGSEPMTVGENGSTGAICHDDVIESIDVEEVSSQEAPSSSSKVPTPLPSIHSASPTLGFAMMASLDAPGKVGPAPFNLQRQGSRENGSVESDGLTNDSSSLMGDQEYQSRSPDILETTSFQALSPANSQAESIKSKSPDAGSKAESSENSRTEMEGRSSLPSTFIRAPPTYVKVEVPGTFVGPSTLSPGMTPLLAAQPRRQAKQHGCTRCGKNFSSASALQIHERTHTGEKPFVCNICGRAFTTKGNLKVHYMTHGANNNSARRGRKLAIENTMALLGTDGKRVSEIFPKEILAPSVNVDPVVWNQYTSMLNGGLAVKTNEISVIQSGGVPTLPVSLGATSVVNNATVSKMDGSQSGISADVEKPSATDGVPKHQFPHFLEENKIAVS
# Method: universal PBM
# Molecule type: double-stranded DNA, one strand shown
# Medium: in vitro
# Concentration: 600 nM
# Notes: 8-mer, flanks averaged, mean of replicates
# Reading: higher = stronger binding
Strand,E-score
ACGAGTTG,0.0169
AATAACAG,0.309
AAATAAGT,0.286
AGTCTTAT,0.255
TTACTAAA,0.303
CTGGCGTC,-0.268
GAGGTCAC,-0.305
ATAACCCA,0.212

# Set 3
# Target: Replicase polyprotein 1ab, main protease (rep, Severe acute respiratory syndrome coronavirus 2, UniProt P0DTD1)
# Observed: enzyme activity
# Mode: inhibitor
# Concentration: 20 µM
# Notes: hit confirmation
Structure (SMILES),inhibition [%]
COC(=O)C1=C(C)NC(C)=C(C(=O)OCC(C)C)C1c1ccccc1[N+](=O)[O-] (stereo not drawn),30.8
CCCCC/C=C/C/C=C/C/C=C/C/C=C/CCCC(=O)O,56.3
CC[C@]12C=CCN3CC[C@@]4(c5cc([C@@]6(C(=O)OC)C[C@@H]7C[C@@H](C(C)(F)F)C[N@](CCc8c6[nH]c6ccccc86)C7)c(OC)cc5N(C)[C@H]4[C@@](O)(C(=O)OC)[C@@H]1OC(C)=O)[C@@H]32,97.2
S=C(S)N1CCCC1,99.5

# Set 4
# Target: Replicase polyprotein 1ab, nsp13 helicase (rep, Severe acute respiratory syndrome coronavirus 2, UniProt P0DTD1)
# Mode: inhibitor
# Concentration: 20 µM
SMILES,inhibition
CNC(=N)NCCC[C@H](N)C(=O)O,0.68%
CN1CC[C@@H]2CN3CCc4cccc(c43)[C@@H]2C1,2.77%
C[C@@H]1Cc2c([nH]c3ccccc23)[C@@H](c2c(F)cc(/C=C/C(=O)O)cc2F)N1CC(C)(C)F,11.8%
CCc1c(C)[nH]c2c1C(=O)C(CN1CCOCC1)CC2 (stereo not drawn),0.77%
O=C(O)Cn1nnc(-c2cc(N3CCC(Oc4cc(F)ccc4Br)CC3)no2)n1,2.56%
C[N+]1(C)CCc2cc3c(cc2[C@H]1[C@@H]1OC(=O)c2c1ccc1c2OCO1)OCO3,2.22%
CC(C)[C@@H]1CC[C@@H](C)C[C@@H]1P(=O)(c1ccccc1)c1ccccc1,12.4%
O=C(O)c1ccc2[nH]cc(CCCCN3CC=C(c4ccccc4)CC3)c2c1,7.92%
Nc1nc(NC2CC2)c2ncn([C@H]3C=C[C@@H](CO)C3)c2n1,-0.16%
CCCC(=O)Nc1ccc(OCC(O)CNC(C)C)c(C(C)=O)c1 (stereo not drawn),-4.37%
CC(/C=C/C(=O)NO)=C\[C@@H](C)C(=O)c1ccc(N(C)C)cc1,14.2%
O=C(O)c1ccccc1Nc1cccc(C(F)(F)F)c1,0.12%
COc1cc(N2CCC(O)CC2)ccc1Nc1cc(Nc2ccccc2S(=O)(=O)C(C)C)c2cc[nH]c2n1,4.35%
NC(=O)c1ccc(-c2nc(-c3ccc4c(c3)OCCO4)c(-c3ccccn3)[nH]2)cc1,10.2%
COc1ccccc1OC(=O)CNC(=O)Cc1ccc(C(=O)c2ccc(C)cc2)n1C,4.58%
CCc1ccccc1OC[C@@H](O)CN[C@H]1CCCc2ccccc21,6.28%
Cc1cc(-c2cc(OC(=O)c3ccccc3)ccc2Cl)cc2nnc(Nc3ccc(OCCN4CCCC4)cc3)nc12,4.56%
Cc1ccc(NC(=O)c2ccc(CN3CCN(C)CC3)cc2)cc1Nc1nc(-c2cccnc2)cs1,18.4%
C/C=C1\NC(=O)[C@H]2CSSCC/C=C/[C@H](CC(=O)N[C@H](C(C)C)C(=O)N2)OC(=O)[C@H](C(C)C)NC1=O,5.14%
CC(C)(C)[C@]1(O)CCN2C[C@H]3c4ccccc4CCc4cccc(c43)[C@@H]2C1,0.23%
CC(C)[C@H](C(=O)Nc1ccc(C(=O)NO)cc1)c1ccccc1,-1.47%
O=C(O)/C=C/c1ccc(O)c(O)c1,6.69%
CCOC(=O)O[C@]1(C(=O)OCCl)CC[C@H]2[C@@H]3CCC4=CC(=O)C=C[C@]4(C)[C@H]3[C@@H](O)C[C@@]21C,3.76%
NC(=O)NCCN1CCN(c2cccc(C(F)(F)F)c2)CC1,-1.88%
COc1cc2c(cc1O)C(CCc1ccc(Cl)cc1)N(C)CC2 (stereo not drawn),1.52%

# Set 5
# Target: Histone acetyltransferase KAT6A, both winged helices, GST fusion (KAT6A, Homo sapiens, UniProt Q92794, residues 1-181)
# Method: protein binding microarray
# Molecule type: double-stranded DNA, one strand shown
# Medium: in vitro
# Concentration: not given
# Notes: 8-mer, flanks averaged, mean of 2 arrays, mostly near background
# Reference: not given
# Reading: higher = stronger binding
# Target sequence (chain): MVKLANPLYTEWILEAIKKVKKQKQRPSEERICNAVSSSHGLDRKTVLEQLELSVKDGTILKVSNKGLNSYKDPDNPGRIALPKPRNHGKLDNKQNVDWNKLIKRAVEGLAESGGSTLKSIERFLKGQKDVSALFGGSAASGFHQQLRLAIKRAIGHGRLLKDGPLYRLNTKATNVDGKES
Strand,E-score
GCTAAAAC,0.12
ACGTAAGT,-0.0546
CGGGGACC,0.151
CCGTGACG,0.235
AAGTACAC,-0.119
ACCGTCCC,0.104
GGTATTAC,-0.0256
ATACACAA,-0.108

# Set 6
# Cell line: HEK-293T/ACE2
# Observed: pseudovirus infection
# Organism: VSV pseudotyped with SARS-CoV-2 spike
# Concentration: concentration not given
# Reference: vehicle-treated
Structure (SMILES),GFP-positive cells
CC(C)(C)c1nc(-c2cccc(NS(=O)(=O)c3c(F)cccc3F)c2F)c(-c2ccnc(N)n2)s1,60.2%
Br.Cc1ccc(Sc2ccccc2N2CCNCC2)c(C)c1,37.2%
CCCS(=O)(=O)Nc1ccc(F)c(C(=O)c2c[nH]c3ncc(-c4ccc(Cl)cc4)cc23)c1F,93.5%
CC(=O)O[C@]1(C(C)=O)CC[C@H]2[C@@H]3C[C@H](C)C4=CC(=O)CC[C@]4(C)[C@H]3CC[C@@]21C,92.5%

# Other studies, line by line
# Method: protein-binding microarray
# Molecule type: double-stranded DNA, one strand shown
# Medium: in vitro
# Concentration: not given
# Notes: k-mer, scored over probes, only values ≥0.25
# Reading: higher = stronger binding
# ATF1: Cyclic AMP-dependent transcription factor ATF-1 (ATF1, Homo sapiens, UniProt P18846, residues 1-271, full length assumed)
# Sequence of UniProt P18846 (whole entry, looked up): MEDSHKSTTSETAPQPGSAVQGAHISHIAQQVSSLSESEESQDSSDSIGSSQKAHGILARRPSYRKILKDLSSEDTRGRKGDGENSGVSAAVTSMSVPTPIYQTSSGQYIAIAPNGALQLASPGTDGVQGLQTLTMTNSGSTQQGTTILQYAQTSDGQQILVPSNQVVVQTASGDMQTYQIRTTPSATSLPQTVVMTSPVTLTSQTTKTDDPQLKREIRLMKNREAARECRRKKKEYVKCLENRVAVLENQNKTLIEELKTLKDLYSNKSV
Strand,target,E-score
CAACGTA,ATF1,0.301
CCACGTA,ATF1,0.378
AGAACAA,"Transcription factor SOX-2, HMG box (SOX2, Homo sapiens, UniProt P48431, residues 19-118)",0.352
CGATCAC,"Microphthalmia-associated transcription factor, full length (MITF, Homo sapiens, UniProt O75030-10, residues 1-413)",0.262

# Repeated from above (set 4):
SMILES,inhibition
CNC(=N)NCCC[C@H](N)C(=O)O,0.68%
CC(/C=C/C(=O)NO)=C\[C@@H](C)C(=O)c1ccc(N(C)C)cc1,14.2%
CC(C)[C@@H]1CC[C@@H](C)C[C@@H]1P(=O)(c1ccccc1)c1ccccc1,12.4%
NC(=O)c1ccc(-c2nc(-c3ccc4c(c3)OCCO4)c(-c3ccccn3)[nH]2)cc1,10.2%
O=C(O)Cn1nnc(-c2cc(N3CCC(Oc4cc(F)ccc4Br)CC3)no2)n1,2.56%
